Experimental data pooled from the literature.
A part holds a random share of what one study measured. Values joined by “and” are separate records of one study, mostly repeats; a detail may differ.
Chain of UniProt Q99640 (whole entry, looked up): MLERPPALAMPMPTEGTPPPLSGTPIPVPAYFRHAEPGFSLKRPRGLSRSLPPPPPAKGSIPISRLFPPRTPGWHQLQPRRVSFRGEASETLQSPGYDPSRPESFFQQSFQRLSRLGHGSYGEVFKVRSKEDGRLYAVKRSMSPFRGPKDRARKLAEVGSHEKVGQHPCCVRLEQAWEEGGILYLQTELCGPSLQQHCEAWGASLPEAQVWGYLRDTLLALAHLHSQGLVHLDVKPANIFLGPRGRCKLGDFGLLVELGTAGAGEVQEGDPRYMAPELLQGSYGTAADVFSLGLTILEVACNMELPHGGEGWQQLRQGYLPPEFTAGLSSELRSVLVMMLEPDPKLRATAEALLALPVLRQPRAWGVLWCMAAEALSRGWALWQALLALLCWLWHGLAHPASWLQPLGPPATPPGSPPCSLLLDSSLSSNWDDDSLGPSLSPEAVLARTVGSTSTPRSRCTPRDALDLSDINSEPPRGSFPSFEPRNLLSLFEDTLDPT
Chain of UniProt O95835 (whole entry, looked up): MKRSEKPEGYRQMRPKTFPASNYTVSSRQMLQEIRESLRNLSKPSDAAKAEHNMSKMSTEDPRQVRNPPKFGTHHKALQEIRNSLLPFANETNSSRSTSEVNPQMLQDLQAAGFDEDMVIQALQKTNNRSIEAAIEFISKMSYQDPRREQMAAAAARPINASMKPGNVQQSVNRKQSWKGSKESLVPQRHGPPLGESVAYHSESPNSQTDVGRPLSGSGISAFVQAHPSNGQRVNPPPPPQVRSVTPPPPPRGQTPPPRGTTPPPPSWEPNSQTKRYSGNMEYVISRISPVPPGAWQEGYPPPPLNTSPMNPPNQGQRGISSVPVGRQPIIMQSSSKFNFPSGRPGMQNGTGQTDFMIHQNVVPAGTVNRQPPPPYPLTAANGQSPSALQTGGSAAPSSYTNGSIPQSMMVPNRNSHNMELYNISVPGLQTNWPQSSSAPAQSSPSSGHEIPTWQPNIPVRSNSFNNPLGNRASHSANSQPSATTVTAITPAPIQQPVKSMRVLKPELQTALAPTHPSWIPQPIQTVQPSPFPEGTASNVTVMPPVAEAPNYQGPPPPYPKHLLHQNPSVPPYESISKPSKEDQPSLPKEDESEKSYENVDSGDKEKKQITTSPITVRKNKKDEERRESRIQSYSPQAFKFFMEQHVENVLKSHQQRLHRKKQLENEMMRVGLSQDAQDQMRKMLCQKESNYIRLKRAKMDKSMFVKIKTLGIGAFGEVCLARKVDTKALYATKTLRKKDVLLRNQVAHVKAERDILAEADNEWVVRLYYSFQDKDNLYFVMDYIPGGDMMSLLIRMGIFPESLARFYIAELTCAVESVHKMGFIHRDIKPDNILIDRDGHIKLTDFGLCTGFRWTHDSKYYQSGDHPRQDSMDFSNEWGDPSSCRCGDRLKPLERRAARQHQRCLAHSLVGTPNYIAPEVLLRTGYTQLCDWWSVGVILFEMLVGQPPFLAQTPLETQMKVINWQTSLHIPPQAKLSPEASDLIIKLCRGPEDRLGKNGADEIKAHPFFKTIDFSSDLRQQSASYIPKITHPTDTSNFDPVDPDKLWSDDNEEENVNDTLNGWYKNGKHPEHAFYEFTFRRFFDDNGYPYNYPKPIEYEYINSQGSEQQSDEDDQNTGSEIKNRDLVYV
Chain of UniProt Q8NFD2 (whole entry, looked up): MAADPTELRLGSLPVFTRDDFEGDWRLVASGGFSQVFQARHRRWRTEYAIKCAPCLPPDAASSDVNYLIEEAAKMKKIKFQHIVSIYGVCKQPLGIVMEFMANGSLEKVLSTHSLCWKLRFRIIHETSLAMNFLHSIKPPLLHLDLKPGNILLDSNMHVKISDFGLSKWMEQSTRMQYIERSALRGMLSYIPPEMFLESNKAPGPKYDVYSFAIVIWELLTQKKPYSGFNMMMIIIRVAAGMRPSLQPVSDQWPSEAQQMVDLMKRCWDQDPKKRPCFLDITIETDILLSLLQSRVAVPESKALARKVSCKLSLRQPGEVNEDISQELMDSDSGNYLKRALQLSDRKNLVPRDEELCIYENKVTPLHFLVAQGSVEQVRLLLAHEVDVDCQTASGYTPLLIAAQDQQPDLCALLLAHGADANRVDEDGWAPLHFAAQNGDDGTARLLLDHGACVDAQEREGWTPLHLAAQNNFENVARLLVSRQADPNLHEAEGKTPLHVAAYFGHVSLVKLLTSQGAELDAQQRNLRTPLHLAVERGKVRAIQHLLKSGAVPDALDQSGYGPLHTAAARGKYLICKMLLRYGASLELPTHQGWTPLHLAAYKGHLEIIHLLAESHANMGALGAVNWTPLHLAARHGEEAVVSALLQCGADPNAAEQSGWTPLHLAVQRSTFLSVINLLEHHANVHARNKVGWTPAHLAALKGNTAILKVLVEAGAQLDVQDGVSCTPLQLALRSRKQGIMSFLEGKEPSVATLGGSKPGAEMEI

Sample 1
Target: Dual specificity mitogen-activated protein kinase kinase 6 (MAP2K6, Homo sapiens, UniProt P52564)
Read-out: enzyme activity
Action: inhibitor
Tested at: 0.5 µM
Relative to: control
Construct (P52564 1-334): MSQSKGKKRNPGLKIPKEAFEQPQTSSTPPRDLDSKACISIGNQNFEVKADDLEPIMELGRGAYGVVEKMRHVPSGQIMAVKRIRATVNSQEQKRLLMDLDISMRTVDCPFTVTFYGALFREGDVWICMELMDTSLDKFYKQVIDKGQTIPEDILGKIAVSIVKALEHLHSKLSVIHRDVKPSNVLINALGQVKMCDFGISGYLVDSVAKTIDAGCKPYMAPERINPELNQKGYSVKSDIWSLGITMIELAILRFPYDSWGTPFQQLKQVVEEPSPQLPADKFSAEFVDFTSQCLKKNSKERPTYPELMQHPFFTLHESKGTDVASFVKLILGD
For O=S(=O)(c1cccc2cnccc12)N1CCCNCC1, the remaining activity was 95.6%.
With COc1ccc(OC)c2c(=S)c3ccccc3[nH]c12 the remaining activity was 89.9%.
For NCCNc1ncc(C(N)=O)c(Nc2cccc(C(F)(F)F)c2)n1, the remaining activity was 114%.
For O=c1c2ccccc2[nH]c(=S)n1CCN1CCC(=C(c2ccc(F)cc2)c2ccc(F)cc2)CC1, the remaining activity was 102%.
Cc1nc(-c2ccccc2)c(-c2ccncc2)o1 has a remaining activity of 99.3%.
Nc1ccc2ncnc(NCCc3ccc(Oc4ccccc4)cc3)c2c1 gave a remaining activity of 96.6%.
The remaining activity of C#Cc1cccc(Nc2ncnc3cc(OCCOC)c(OCCOC)cc23)c1 is reported as 94.2%.
The remaining activity of COc1ccc(C(=O)Nc2sc3c(c2C(N)=O)CCCC3)cc1OC is reported as 114%.
Cc1ccc(Nc2nccc(N(C)c3ccc4c(C)n(C)nc4c3)n2)cc1S(N)(=O)=O gave a remaining activity of 98.3%.
Oc1ccc(-c2nc(-c3ccncc3)c(-c3ccc(F)cc3)[nH]2)cc1 gave a remaining activity of 109%.
The remaining activity of CN(C)c1ccc(C=C2C(=O)Nc3ccccc32)cc1 is reported as 94.7%.
Cn1c2ccccc2c2c3c(c4c5ccccc5n(CCC#N)c4c21)CNC3=O gave a remaining activity of 21.1%.
COc1cc2ncnc(Nc3ccc(Oc4ccccc4)cc3)c2cc1OC has a remaining activity of 102%.
Nc1ncnc2n[nH]c(Nc3ccc(F)cc3)c12 has a remaining activity of 87.6%.
For COc1ccc(CNC(=O)Nc2ncc([N+](=O)[O-])s2)cc1, the remaining activity was 85.9%.

Sample 2
Target: DNA polymerase theta, helicase domain (POLQ, Homo sapiens, UniProt O75417)
Chain of UniProt O75417 (whole entry, looked up): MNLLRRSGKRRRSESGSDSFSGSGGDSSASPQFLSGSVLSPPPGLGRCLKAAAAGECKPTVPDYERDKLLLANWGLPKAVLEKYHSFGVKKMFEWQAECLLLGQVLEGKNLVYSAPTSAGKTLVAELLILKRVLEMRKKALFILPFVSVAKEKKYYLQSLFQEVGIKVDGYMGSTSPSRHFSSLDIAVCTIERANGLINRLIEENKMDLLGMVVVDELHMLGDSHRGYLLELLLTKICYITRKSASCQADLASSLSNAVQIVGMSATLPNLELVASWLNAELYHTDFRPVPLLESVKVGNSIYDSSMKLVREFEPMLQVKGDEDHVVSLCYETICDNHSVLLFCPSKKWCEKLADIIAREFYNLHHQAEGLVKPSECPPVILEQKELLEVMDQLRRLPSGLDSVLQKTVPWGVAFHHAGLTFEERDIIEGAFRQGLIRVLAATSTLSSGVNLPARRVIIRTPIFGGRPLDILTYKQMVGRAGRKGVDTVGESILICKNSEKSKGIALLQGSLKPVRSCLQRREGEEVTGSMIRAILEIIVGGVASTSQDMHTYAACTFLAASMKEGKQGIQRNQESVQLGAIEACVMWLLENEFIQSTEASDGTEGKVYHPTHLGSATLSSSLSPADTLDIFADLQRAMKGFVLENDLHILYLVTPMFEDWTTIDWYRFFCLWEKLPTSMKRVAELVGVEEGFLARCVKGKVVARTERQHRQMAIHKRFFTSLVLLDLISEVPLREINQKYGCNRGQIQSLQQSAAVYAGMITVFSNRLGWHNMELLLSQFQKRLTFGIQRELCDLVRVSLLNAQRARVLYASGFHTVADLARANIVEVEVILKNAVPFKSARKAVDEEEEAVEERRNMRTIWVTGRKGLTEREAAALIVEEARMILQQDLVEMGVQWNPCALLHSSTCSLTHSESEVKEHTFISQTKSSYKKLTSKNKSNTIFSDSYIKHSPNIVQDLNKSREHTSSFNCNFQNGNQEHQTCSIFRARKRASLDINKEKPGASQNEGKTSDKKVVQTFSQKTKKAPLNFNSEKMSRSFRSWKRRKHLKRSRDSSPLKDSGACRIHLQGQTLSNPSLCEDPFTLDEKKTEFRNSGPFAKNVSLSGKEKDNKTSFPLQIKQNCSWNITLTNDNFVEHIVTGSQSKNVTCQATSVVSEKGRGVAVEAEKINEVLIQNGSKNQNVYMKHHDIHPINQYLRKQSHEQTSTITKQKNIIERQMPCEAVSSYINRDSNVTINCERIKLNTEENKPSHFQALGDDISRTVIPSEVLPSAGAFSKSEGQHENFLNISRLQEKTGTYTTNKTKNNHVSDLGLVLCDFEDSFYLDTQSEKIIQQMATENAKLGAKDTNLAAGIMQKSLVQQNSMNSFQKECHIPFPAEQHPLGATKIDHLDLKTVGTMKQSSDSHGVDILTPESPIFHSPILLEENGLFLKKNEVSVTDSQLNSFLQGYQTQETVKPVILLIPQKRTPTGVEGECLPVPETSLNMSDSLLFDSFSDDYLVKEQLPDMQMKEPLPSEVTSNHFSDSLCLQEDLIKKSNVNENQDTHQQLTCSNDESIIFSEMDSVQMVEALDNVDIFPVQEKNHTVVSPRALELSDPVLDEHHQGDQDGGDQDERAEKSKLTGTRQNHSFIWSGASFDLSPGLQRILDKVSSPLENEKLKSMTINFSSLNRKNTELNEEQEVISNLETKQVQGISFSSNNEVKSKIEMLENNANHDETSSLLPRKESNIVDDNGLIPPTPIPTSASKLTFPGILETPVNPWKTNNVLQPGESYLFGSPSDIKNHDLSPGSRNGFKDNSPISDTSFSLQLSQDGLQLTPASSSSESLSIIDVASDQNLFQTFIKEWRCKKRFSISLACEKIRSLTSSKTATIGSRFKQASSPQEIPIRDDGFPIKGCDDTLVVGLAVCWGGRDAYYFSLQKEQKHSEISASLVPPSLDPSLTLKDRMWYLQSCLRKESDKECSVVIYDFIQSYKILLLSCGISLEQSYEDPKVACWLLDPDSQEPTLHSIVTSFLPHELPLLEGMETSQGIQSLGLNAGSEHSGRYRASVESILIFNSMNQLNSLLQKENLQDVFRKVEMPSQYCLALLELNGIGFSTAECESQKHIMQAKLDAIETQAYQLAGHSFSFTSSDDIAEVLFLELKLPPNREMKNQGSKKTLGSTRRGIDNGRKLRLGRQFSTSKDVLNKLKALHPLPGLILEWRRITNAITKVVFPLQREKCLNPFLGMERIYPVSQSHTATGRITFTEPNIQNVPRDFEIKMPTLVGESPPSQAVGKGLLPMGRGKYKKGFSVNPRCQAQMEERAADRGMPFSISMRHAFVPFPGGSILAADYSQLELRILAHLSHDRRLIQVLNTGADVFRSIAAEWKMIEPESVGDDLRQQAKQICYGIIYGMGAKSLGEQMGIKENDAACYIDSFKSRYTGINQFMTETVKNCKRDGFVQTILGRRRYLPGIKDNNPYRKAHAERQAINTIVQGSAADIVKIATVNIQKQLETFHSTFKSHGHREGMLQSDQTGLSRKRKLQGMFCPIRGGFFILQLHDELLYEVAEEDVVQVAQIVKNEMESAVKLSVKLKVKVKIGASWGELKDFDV
Action: inhibitor
Tested at: concentration not given
Setting: average
Added: without ssDNA
N#Cc1c(O)c2c(-c3ccc(-c4ccccc4O)cc3)csc2[nH]c1=O has a remaining activity of 49.5%.
CCCCCCCCCCCCc1ccc(S(=O)(=O)Nc2nncs2)cc1 gave a remaining activity of 97.6%.
The remaining activity of O=C(Nc1ccccc1C(=O)O)c1cccc(S(=O)(=O)N2CCCC2)c1 is reported as 55.4%.
The remaining activity of CC1=Nc2cc(C(=O)NCCc3ccc(Cl)cc3)ccc2Sc2ccc(C)cc21 is reported as 63.7%.
CC(=O)Oc1ccccc1C(=O)Nc1ncc([N+](=O)[O-])s1 has a remaining activity of 49%.
The remaining activity of CC(=O)Oc1cccc2c1C(=O)c1c(OC(C)=O)cc(C(=O)O)cc1C2=O is reported as 58.2%.
CCOc1nc2cccc(C(=O)OCc3oc(=O)oc3C)c2n1Cc1ccc(-c2ccccc2-c2noc(=O)[nH]2)cc1 has a remaining activity of 48.4%.
The remaining activity of CCOc1ccccc1NC(=O)CSc1ncc(S(=O)(=O)c2ccc(C(C)(C)C)cc2)c(=O)[nH]1 is reported as 70.5%.

Sample 3
Structure (SMILES): NS(=O)(=O)c1cc(NC(=O)C2(c3ccccc3Cl)CC2)ccc1Oc1cccc(Cl)c1
Read-out: cell-free assay
Technique: competition with immobilised ligand
Tested at: 1 µM
The remaining binding was 70% (PKMYT1 (Homo sapiens, UniProt Q99640)).
The remaining binding was 100% (LIM domain kinase 1 (LIMK1, Homo sapiens, UniProt P53667)).
It gave 74% for remaining binding (CDK5 (Homo sapiens, UniProt Q00535)).
It gave 100% for remaining binding (PAK5 (Homo sapiens, UniProt Q9P286)).
It gave 97% for remaining binding (ANKK1 (Homo sapiens, UniProt Q8NFD2)).
The remaining binding was 83% (CDK11B (Homo sapiens, UniProt P21127)).
For SRPK3 (Homo sapiens, UniProt Q9UPE1): remaining binding read 80%.
For EPHB3 (Homo sapiens, UniProt P54753): remaining binding read 62%.
It gave 69% for remaining binding (LATS1 (Homo sapiens, UniProt O95835)).

Sample 4
Compound: CCOc1ccc(Nc2c3c(nc4ccccc24)CCC3)cc1
Organism: Leishmania donovani
Read-out: parasite killing
Strain: DD8
It gave 100% for inhibition (intracellular amastigotes; 40 µM, 72 h).
For promastigotes; 66.66 µM, 96 h: inhibition read 100%.
promastigotes; 6.66 µM, 24 h — inhibition: 70% and 62% and 74%.
For intracellular amastigotes; 40 µM, 48 h: inhibition read 100%.
It gave 14% and 16% and 17% for inhibition (intracellular amastigotes; 0.2 µM, 72 h).
The inhibition was 80% and 69% and 81% (promastigotes; 6.66 µM, 48 h).
intracellular amastigotes; 8 µM, 72 h — inhibition: 100%.
The inhibition was 84% and 94% and 91% (intracellular amastigotes; 4 µM, 72 h).
It gave 100% for inhibition (intracellular amastigotes; 80 µM, 72 h).
For intracellular amastigotes; 0.8 µM, 96 h: inhibition read 58%.
